Experimental data gathered from unrelated publications.
Compare with care: the assays were run in different laboratories.
DRD3: D(3) dopamine receptor (DRD3, Homo sapiens, UniProt P35462)
Sequence of UniProt P35462 (whole entry, looked up): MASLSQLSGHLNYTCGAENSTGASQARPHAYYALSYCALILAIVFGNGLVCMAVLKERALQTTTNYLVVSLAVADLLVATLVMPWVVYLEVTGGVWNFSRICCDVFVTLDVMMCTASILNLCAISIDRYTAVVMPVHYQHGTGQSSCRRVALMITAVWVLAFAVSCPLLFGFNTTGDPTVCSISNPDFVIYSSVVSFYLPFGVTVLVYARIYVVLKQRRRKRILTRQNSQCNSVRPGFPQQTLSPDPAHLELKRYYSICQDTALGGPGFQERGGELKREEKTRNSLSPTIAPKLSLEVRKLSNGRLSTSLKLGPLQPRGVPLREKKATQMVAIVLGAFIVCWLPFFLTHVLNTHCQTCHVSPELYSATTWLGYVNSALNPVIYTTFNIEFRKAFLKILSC
ADRA2B: Alpha-2B adrenergic receptor (ADRA2B, Homo sapiens, UniProt P18089)
Sequence of UniProt P18089 (whole entry, looked up): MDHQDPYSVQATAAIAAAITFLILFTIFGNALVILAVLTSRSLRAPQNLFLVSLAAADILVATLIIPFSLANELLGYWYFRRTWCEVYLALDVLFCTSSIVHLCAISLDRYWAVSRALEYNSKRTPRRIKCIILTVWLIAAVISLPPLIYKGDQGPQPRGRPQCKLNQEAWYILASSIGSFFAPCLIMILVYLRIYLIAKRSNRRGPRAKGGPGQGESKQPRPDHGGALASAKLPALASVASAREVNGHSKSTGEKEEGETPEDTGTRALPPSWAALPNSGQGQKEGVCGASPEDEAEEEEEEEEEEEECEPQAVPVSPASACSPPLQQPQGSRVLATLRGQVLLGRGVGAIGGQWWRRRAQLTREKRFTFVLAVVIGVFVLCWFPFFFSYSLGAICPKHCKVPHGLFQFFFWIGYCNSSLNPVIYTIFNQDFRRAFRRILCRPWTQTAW
HDAC8: Histone deacetylase 8 (HDAC8, Homo sapiens, UniProt Q9BY41)
Sequence of UniProt Q9BY41 (whole entry, looked up): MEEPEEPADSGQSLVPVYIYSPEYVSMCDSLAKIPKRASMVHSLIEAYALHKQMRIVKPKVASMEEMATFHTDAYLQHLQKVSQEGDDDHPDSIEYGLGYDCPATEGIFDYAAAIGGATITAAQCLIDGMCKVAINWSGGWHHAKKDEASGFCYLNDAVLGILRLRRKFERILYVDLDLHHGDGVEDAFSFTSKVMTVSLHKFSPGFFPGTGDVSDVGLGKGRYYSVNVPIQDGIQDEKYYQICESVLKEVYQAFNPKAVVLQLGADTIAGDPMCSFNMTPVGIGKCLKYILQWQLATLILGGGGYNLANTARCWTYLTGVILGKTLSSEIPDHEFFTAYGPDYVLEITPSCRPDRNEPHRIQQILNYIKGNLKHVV
ADRA2C: Alpha-2C adrenergic receptor (ADRA2C, Homo sapiens, UniProt P18825)
Sequence of UniProt P18825 (whole entry, looked up): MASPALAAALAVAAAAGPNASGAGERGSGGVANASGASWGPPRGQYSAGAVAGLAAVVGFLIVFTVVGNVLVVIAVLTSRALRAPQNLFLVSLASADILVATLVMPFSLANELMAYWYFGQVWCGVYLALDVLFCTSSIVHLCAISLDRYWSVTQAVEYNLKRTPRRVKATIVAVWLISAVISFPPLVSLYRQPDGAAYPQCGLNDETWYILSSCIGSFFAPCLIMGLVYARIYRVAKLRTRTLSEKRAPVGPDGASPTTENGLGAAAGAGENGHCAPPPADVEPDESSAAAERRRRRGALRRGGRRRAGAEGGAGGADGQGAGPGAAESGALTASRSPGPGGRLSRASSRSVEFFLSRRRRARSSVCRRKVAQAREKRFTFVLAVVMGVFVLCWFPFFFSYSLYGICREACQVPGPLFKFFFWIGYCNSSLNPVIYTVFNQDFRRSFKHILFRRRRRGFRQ
HDAC1: Histone deacetylase 1 (HDAC1, Homo sapiens, UniProt Q13547)
Sequence of UniProt Q13547 (whole entry, looked up): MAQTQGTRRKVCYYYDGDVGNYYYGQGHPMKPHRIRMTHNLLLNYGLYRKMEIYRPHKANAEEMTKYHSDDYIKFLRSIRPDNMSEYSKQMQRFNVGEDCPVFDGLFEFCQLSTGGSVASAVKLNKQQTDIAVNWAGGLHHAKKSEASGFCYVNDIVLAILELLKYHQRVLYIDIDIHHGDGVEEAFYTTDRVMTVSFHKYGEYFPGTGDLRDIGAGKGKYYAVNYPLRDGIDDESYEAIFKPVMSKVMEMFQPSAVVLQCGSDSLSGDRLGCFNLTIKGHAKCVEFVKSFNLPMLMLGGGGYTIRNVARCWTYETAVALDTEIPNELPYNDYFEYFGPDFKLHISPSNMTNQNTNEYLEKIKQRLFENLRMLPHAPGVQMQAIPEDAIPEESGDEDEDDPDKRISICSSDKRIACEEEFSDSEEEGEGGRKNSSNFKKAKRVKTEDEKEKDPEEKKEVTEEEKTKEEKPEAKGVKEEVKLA
Sequence of UniProt P0DMS8 (whole entry, unmodified, looked up): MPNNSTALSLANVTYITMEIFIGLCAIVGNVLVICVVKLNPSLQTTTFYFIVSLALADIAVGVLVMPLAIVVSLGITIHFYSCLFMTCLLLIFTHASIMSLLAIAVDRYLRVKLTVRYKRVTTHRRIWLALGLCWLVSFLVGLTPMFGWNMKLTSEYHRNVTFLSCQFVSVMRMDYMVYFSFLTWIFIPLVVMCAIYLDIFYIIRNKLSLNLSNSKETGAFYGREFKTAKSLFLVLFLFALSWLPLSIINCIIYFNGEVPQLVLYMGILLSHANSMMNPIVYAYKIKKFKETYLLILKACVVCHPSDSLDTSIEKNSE
Sequence of UniProt P35348 (whole entry, looked up): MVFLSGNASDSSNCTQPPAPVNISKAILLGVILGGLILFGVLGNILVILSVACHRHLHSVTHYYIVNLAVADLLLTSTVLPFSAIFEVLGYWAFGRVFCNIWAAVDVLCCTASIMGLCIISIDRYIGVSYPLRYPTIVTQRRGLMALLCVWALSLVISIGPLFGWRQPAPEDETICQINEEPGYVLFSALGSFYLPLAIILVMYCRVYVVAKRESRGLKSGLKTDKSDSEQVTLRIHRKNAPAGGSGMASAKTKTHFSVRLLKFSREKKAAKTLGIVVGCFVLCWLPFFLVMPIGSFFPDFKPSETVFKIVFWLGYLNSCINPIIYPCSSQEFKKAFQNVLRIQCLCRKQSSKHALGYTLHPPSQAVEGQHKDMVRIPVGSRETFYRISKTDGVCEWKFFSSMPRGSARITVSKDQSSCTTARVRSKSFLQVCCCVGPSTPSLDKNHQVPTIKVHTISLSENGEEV
Sequence of UniProt Q9UBN7 (whole entry, looked up): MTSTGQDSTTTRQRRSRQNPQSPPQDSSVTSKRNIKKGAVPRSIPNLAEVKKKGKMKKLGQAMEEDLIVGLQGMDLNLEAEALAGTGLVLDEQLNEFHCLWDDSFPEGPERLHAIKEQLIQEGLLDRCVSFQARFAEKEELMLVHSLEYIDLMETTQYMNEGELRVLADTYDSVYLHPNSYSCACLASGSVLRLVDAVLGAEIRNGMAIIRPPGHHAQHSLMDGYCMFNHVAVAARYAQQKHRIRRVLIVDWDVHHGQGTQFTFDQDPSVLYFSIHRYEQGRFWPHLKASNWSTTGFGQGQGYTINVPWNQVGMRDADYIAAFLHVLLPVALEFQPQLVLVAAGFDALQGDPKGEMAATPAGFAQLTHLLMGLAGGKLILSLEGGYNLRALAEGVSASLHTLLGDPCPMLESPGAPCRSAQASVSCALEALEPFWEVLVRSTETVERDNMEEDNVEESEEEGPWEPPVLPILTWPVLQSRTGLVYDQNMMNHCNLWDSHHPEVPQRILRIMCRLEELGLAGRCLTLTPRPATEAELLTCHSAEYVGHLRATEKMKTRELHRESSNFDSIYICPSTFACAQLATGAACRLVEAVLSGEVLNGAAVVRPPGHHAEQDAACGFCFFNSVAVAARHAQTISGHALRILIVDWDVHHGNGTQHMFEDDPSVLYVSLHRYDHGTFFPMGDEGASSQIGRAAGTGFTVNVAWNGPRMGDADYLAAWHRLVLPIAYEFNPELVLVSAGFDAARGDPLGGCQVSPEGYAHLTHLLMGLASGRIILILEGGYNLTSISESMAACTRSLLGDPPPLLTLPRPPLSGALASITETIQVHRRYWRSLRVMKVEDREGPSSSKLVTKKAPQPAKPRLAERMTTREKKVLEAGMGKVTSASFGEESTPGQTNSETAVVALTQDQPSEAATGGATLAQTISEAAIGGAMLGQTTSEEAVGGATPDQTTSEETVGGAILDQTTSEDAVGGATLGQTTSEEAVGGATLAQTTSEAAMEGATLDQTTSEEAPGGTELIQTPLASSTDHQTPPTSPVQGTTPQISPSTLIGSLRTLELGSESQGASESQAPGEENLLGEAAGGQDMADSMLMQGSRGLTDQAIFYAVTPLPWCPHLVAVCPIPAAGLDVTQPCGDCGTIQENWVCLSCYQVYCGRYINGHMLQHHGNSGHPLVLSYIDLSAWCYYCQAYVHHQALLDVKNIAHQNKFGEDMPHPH

The IC50 of `Cc1[nH]c(C)c(S(=O)(=O)Nc2ccc(I)c(Cl)c2)c1C(=O)N1CCC(F)(F)C1` is reported as 920 nM (DRD3; G protein activation, antagonist, BRET).
For `Cc1cc(Oc2ncccc2CN2CCN(c3cccc(Cl)c3)CC2)ccc1-c1c(C)c(=O)[nH]c(=O)n1C`, the Ki was 124 nM (ADRA2B; ligand displacement, radioligand).
For `CN(C)c1ncnc2c1ncn2[C@@H]1O[C@H](CO)[C@@H](O)[C@H]1O`, the EC50 was 2400 nM (Adenosine receptor A3 (ADORA3, Homo sapiens, UniProt P0DMS8, V169A); G protein activation, agonist).
`Cc1ccc(NS(=O)(=O)c2c(C)[nH]c(C)c2C(=O)N2CCC(F)(F)C2)cc1Cl` gave an IC50 of 9900 nM (DRD3; β-arrestin recruitment, antagonist).
The Ki of `O=C(NO)c1cccc(OS(=O)(=O)Oc2ccc(C(F)(F)F)cc2)c1` is reported as 800 nM (HDAC8; enzyme activity, inhibitor, fluorescence).
The IC50 of `O=C1NCCc2[nH]cc(S(=O)(=O)Nc3ccc(C(F)(F)F)c(Cl)c3)c21` is reported as 32000 nM (DRD3; β-arrestin recruitment, antagonist).
`Cc1cc(Oc2ncccc2CN2CCN(c3ccccc3[N+](=O)[O-])CC2)ccc1-c1c(C)c(=O)[nH]c(=O)n1C` has a Ki of 26 nM (ADRA2C; ligand displacement, radioligand).
With `Cc1[nH]c(C)c(S(=O)(=O)Nc2ccc(Cl)c(C(F)(F)F)c2)c1C(=O)N1CCCC1` the IC50 was 4100 nM (DRD3; G protein activation, antagonist, BRET).
With `Cc1cc(Oc2ncccc2CN2CCN(c3ccccc3Br)CC2)ccc1-c1c(C)c(=O)[nH]c(=O)n1C` the Ki was 663 nM (Alpha-1A adrenergic receptor (ADRA1A, Homo sapiens, UniProt P35348); ligand displacement, radioligand).
With `O=C(NO)c1cc(F)cc(OS(=O)(=O)Oc2ccc(Oc3ccccc3)cc2)c1` the Ki was 3830 nM (HDAC8; enzyme activity, inhibitor, fluorescence).
`Cc1cc(Oc2ncccc2CN2CCN(c3ccc(C(F)(F)F)cc3[N+](=O)[O-])CC2)ccc1-c1c(C)c(=O)[nH]c(=O)n1C` has a Ki of 2590 nM (ADRA2B; ligand displacement, radioligand).
The Ki of `O=C(NO)c1cccc(OS(=O)(=O)Oc2ccc3ccccc3c2)c1` is reported as 1020 nM (HDAC1; enzyme activity, inhibitor, fluorescence).
`Cc1cc(Oc2ncccc2CN2CCN(c3ccc(O)cc3)CC2)ccc1-c1c(C)c(=O)[nH]c(=O)n1C` has a Ki of 288 nM (ADRA2C; ligand displacement, radioligand).
The Ki of `O=C(NO)c1cncc(OS(=O)(=O)Oc2ccc3ccccc3c2)c1` is reported as 301 nM (HDAC1; enzyme activity, inhibitor, fluorescence).
`Cc1cc(Oc2ncccc2CN2CCN(c3cccc4ccccc34)CC2)ccc1-c1c(C)c(=O)[nH]c(=O)n1C` has a Ki of 130 nM (ADRA2B; ligand displacement, radioligand).
For `COc1cccc(OS(=O)(=O)Oc2cccc(C(=O)NO)c2)c1`, the Ki was 58 nM (HDAC8; enzyme activity, inhibitor, fluorescence).
For `Cc1[nH]c(C)c(S(=O)(=O)Nc2ccc(C(F)(F)F)c(Cl)c2)c1C(=O)N1CC(F)(F)C(F)(F)C1`, the IC50 was 7100 nM (DRD3; G protein activation, antagonist, BRET).
For `Cc1cc(Oc2ncccc2CN2CCN(c3c(C)cccc3C)CC2)ccc1-c1c(C)c(=O)[nH]c(=O)n1C`, the Ki was 909 nM (ADRA2B; ligand displacement, radioligand).
With `O=C(NO)c1cc(F)cc(OS(=O)(=O)Oc2ccc(-n3ccnc3)cc2)c1` the Ki was 463 nM (HDAC8; enzyme activity, inhibitor, fluorescence).
`Cc1[nH]c(C)c(S(=O)(=O)Nc2cc(Cl)c(Cl)c(Cl)c2)c1C(=O)N1CCC(F)(F)C1` has an IC50 of 4100 nM (DRD3; G protein activation, antagonist, BRET).
With `CC(C)c1cccc(OS(=O)(=O)Oc2cc(F)cc(C(=O)NO)c2)c1` the Ki was 370 nM (Protein deacetylase HDAC6 (HDAC6, Homo sapiens, UniProt Q9UBN7); enzyme activity, inhibitor, fluorescence).
With `Cc1[nH]c(C)c(S(=O)(=O)Nc2ccc(Cl)c(Cl)c2)c1C(=O)N1CCC(F)(F)C1` the IC50 was 2300 nM (DRD3; G protein activation, antagonist, BRET).

Repeated from above:
`Cc1cc(Oc2ncccc2CN2CCN(c3ccc(O)cc3)CC2)ccc1-c1c(C)c(=O)[nH]c(=O)n1C` has a Ki of 288 nM (ADRA2C; ligand displacement, radioligand).
For `Cc1cc(Oc2ncccc2CN2CCN(c3cccc(Cl)c3)CC2)ccc1-c1c(C)c(=O)[nH]c(=O)n1C`, the Ki was 124 nM (ADRA2B; ligand displacement, radioligand).
With `O=C(NO)c1cc(F)cc(OS(=O)(=O)Oc2ccc(Oc3ccccc3)cc2)c1` the Ki was 3830 nM (HDAC8; enzyme activity, inhibitor, fluorescence).
